Assay results from different studies.
Lines come from different studies, so protocols differ. Several values in a cell are separate wells, animals, samples, runs or records. ± gives the spread as reported. Converted amounts (≈) assume the structure as drawn.

| Structure (SMILES) | organism | test | system | conditions | scale | measurement | value |
| --- | --- | --- | --- | --- | --- | --- | --- |
| Cc1cc(C(=O)Nc2nc3cccc(C)c3n2[C@H]2CCCCN(C(=O)/C=C/CN(C)C)C2)ccn1 | Trypanosoma brucei | propidium iodide flow cytometry, item: G1 phase | bloodstream parental line | concentration not given |  | cell cycle distribution | 16.2% and 10.5% and 10% |
| CCN(CC)CC#CCNc1ccnc2cc(Cl)ccc12 | Plasmodium falciparum | parasite growth, LDH | RF12 |  | relative to: IC50 RF12 over IC50 3D7 | resistance index | 1.5 |
| COc1ccccc1-c1n[nH]c2nc(NC3CCN(C(=O)Cc4ccc(F)cc4F)CC3)ncc12 | Leishmania donovani | cell growth | promastigotes, LdBOB | life-cycle stage comparison |  | EC50 | 0.0052 ± 0.0004 µM |
| Oc1c(Br)cc(Br)c2nc3ccc(C(F)(F)F)cc3nc12 | Enterococcus faecalis | Calgary biofilm device | OG1RF |  |  | MBEC | 150 µM |
| CC(C)[C@H]1NC(=O)CNC(=O)[C@H](CO)NC(=O)[C@@H](Cc2c(-c3ccc(-c4ccc5ccccc5c4)cc3)[nH]c3ccccc23)NC(=O)[C@@H](CO)NC(=O)[C@@H](C(C)C)NC(=O)[C@H](Cc2ccccc2)NC1=O | Vibrio vulnificus | broth dilution |  |  |  | MIC90 | > 50 µM |
| CCOC(=O)C1(Cc2ccc(C(F)(F)F)cc2)Oc2cc(F)ccc2N(Cc2ccc(C(F)(F)F)cc2)C1=O (stereo not drawn) | Amaranthus retroflexus | fresh weight, greenhouse postemergence |  | postemergence, 150 g ai/ha, 21 days |  | inhibition | 40.4 ± 3.36% |
| CC[C@H](C)CCCCC(=O)N[C@@H](CCN)C(=O)N[C@H](C(=O)N[C@@H](CCN)C(=O)N[C@H]1CCNC(=O)[C@H]([C@@H](C)O)NC(=O)[C@H](CCN)NC(=O)[C@H](CCN)NC(=O)[C@H](CC(C)C)NC(=O)[C@@H](CC(C)C)NC(=O)[C@H](CCN)NC1=O)[C@@H](C)O | Escherichia coli | daily serial passaging | ATCC 8739 | highest sub-MIC, 8 days | relative to: initial MIC | MIC fold change | 1.16 |
| CN(C)S(=O)(=O)c1ccc(S(=O)(=O)N2CCC(n3c(=O)[nH]c4ccccc43)CC2)cc1 | Escherichia coli |  | Keio wild type | concentration not given, 72 h |  | rifampicin concentration | 62.5 µg/mL |
| CCCCC(CC)COC(=O)CC(C(=O)OCC(CC)CCCC)S(=O)(=O)O.CCCSc1ccc2[nH]c(NC(=O)OC)nc2c1 (stereo not drawn) | Cryptococcus neoformans var. grubii | EUCAST broth microdilution | KN99α reference strain | 72 h, 37 °C, RPMI with 2% glucose |  | IC90 | 1.25 µM |
| COc1ccc(C2=[N+]([O-])c3ccccc3N3CCCN=C23)cc1 | Bacteroides fragilis |  |  |  |  | MIC90 | 2 µg/mL |
| CN(C(=O)c1ccn2ncc(-c3ccc(C(N)=O)cc3)c2c1)c1ccc(C#N)cn1 | Cryptosporidium parvum |  | UGA1 Nluc, IFN-gamma knockout C57BL/6 mice, faeces | oral, 10 mg/kg daily, 216 h post infection, treatment days 3-9 | higher means more parasites | faecal Nluc luminescence | 133 a.u. and 19 a.u. and 10 a.u. and 55 a.u. and 13 a.u. |
| O=C(CCN(CCC(=O)N[C@@H](Cc1c[nH]c2ccccc12)C(=O)O)C(=O)CCN(CCC(=O)N(CCC(=O)N[C@@H](Cc1c[nH]c2ccccc12)C(=O)O)CCC(=O)N[C@@H](Cc1c[nH]c2ccccc12)C(=O)O)C(=O)[C@H]1C[C@@H](C(=O)N(CCC(=O)N(CCC(=O)N[C@@H](Cc2c[nH]c3ccccc23)C(=O)O)CCC(=O)N[C@@H](Cc2c[nH]c3ccccc23)C(=O)O)CCC(=O)N(CCC(=O)N[C@@H](Cc2c[nH]c3ccccc23)C(=O)O)CCC(=O)N[C@@H](Cc2c[nH]c3ccccc23)C(=O)O)C[C@@H](C(=O)N(CCC(=O)N(CCC(=O)N[C@@H](Cc2c[nH]c3ccccc23)C(=O)O)CCC(=O)N[C@@H](Cc2c[nH]c3ccccc23)C(=O)O)CCC(=O)N(CCC(=O)N[C@@H](Cc2c[nH]c3ccccc23)C(=O)O)CCC(=O)N[C@@H](Cc2c[nH]c3ccccc23)C(=O)O)C1)N[C@@H](Cc1c[nH]c2ccccc12)C(=O)O | human adenovirus 2 | viral replication | HEL cells |  |  | EC50 | 30 ± 0.2 µM |
| CCc1nn(C)c2nc(-c3ccc(C(=O)O)cc3)nc(NCc3ccccc3)c12 | Cryptosporidium parvum |  | HCT-8 | 9 x EC90, 24 h | relative to: DMSO control | parasite number | 26.7% and 42.2% and 38.4% and 34.2% |
| [O-][N+]1=C(c2ccccc2)C2=NCCN2c2ccccc21 | Bacteroides fragilis |  |  |  |  | MIC90 | ≤ 0.06 µg/mL |
| NCCO.O=C(O)C(Cl)Cl | Amaranthus retroflexus | herbicidal activity |  | 15 mg/mL, 21 days, post-emergence greenhouse |  | inhibition | 0% |
| CCOC(=O)C1(Cc2ccc(C#N)cc2)Oc2cc(F)ccc2N(Cc2ccc(C#N)cc2)C1=O (stereo not drawn) | Amaranthus retroflexus | fresh weight, greenhouse postemergence |  | postemergence, 150 g ai/ha, 21 days |  | inhibition | 47.1 ± 4.24% |
| [O-][N+]1=C(c2ccccc2)C2=NCCCN2c2ncccc21 | Bacteroides fragilis | microbial growth |  |  |  | MIC50 | ≤ 0.06 µg/mL |
| COc1ccc(Cn2c3cc(=O)n(Cc4cccc(Cl)n4)c(C)c3c(=O)n2-c2ccccn2)cc1 | human respiratory syncytial virus |  | recombinant reporter virus | concentration not given, scale 0 to 100, together with: cytidine 0.4 µM |  | normalized viral replication | 0 |
| CC(C)[C@H]1NC(=O)[C@H](Cc2ccccc2)NC(=O)[C@@H](C(C)C)NC(=O)[C@@H](C)NC(=O)[C@H](CO)NC(=O)[C@@H](Cc2c(-c3ccc(-c4ccc(-c5ccccc5)cc4)cc3)[nH]c3ccccc23)NC(=O)[C@@H](CO)NC1=O | Vibrio vulnificus | broth dilution |  |  |  | MIC90 | > 50 µM |
| CC[C@H](C)[C@H](NC(=O)[C@H](Cc1ccccc1)NC(=O)[C@H](CCCCN)NC(=O)[C@H](CCCCN)NC(=O)CNC(=O)[C@H](C)NC(=O)[C@H](CC(N)=O)NC(=O)[C@H](CCCCN)NC(=O)[C@H](Cc1ccccc1)NC(=O)[C@H](CC(N)=O)NC(=O)[C@H](CCC(=O)O)NC(=O)[C@H](Cc1c[nH]c2ccccc12)NC(=O)[C@H](CC(C)C)NC(=O)[C@@H](N)CO)C(=O)N[C@@H](CC(C)C)C(=O)N[C@@H](CC(N)=O)C(=O)N[C@H](C(=O)N[C@@H](CC(C)C)C(=O)N[C@@H](CC(=O)O)C(=O)N[C@@H](CCCCN)C(N)=O)[C@@H](C)CC | all tested microorganisms |  |  |  |  | geometric mean MIC | 13.5 µM |
| CCCC/C=C/C(=O)N[C@@H](Cc1csc2ccccc12)C(=O)N[C@H]1COC(=O)[C@@H]2C[C@@H](C)CN2C(=O)[C@H](C)NC(=O)[C@@H]2CCCCN2C(=O)[C@@H]2CCCN2C1=O | human coronavirus OC43 |  | Huh-7 | concentration not given, unit not given | relative to: DMSO | viral RNA release | 0.037 and 0.028 and 0.039 |
| CC(C)C[C@H](NC(=O)[C@H](CC(=O)O)NC(=O)[C@@H](NC(=O)[C@H](CCC(=O)O)NC(=O)[C@H](CCCCN)NC(=O)[C@H](Cc1ccc(O)cc1)NC(=O)[C@H](CCCCN)NC(=O)[C@H](Cc1c[nH]cn1)NC(=O)CNC(=O)CN)[C@@H](C)O)C(N)=O | hepatitis C virus |  | Huh-7 ET replicon |  | relative to: TC50 over IC50 | selectivity index | > 23 |
| C#CCCCC(=O)N[C@H]1CCOC1=O | Escherichia coli | LuxR reporter, antagonist | DH5α sensor strain | 10 µM, together with: OHHL 200 nM |  | inhibition | 74% |
| CCC1(CC)CC(=O)N(C2c3cc(C(=O)NC4c5ccccc5CC4O)ccc3OC2(C)COC)C(=N)N1 (stereo not drawn) | Plasmodium falciparum | parasite growth | 3D7 |  |  | EC50 | 0.0004 µM |
| CCOC(=O)C1(Cc2ccccc2)Oc2ccccc2N(Cc2ccccc2)C1=O (stereo not drawn) | Amaranthus retroflexus | fresh weight, greenhouse postemergence |  | postemergence, 150 g ai/ha, 21 days |  | inhibition | 55.4 ± 5.26% |
| FC(F)(F)c1cccc(CNc2nc(NC3CCN(Cc4ccccc4)CC3)c3nc[nH]c3n2)c1 | Cryptococcus neoformans | RNA-seq, item: INM1 (CNAG_01823) |  | 48 µg/mL, 3 h | relative to: untreated | mRNA fold change | 1.25 |
| CCOC(=O)C1(Cc2ccccc2)Oc2cc(OC)ccc2N(Cc2ccccc2)C1=O (stereo not drawn) | Amaranthus retroflexus | fresh weight, greenhouse postemergence |  | postemergence, 150 g ai/ha, 21 days |  | inhibition | 52.3 ± 3.78% |
| [O-][N+]1=C(c2ccsc2)C2=NCCCN2c2ccccc21 | Bacteroides fragilis | microbial growth |  |  |  | MIC50 | 0.25 µg/mL (≈ 0.882 µM) |
| CCCN1C(=O)C(CCC)(C(=O)OCC)Oc2cc(F)ccc21 (stereo not drawn) | Amaranthus retroflexus | fresh weight, greenhouse postemergence |  | postemergence, 150 g ai/ha, 21 days |  | inhibition | 60.9 ± 2.37% |
| C#CCNC(=O)C[C@H](Cc1ccc(F)cc1)NC(=O)[C@@H](Cc1ccc(Cl)cc1Cl)NC(=O)[C@H](N)Cc1ccccc1C#N | human coronavirus OC43 | cytopathic effect | RD cells |  |  | EC50 | 3.3 µM |
